Experimental data collected from several papers.
Lines come from different studies, so protocols differ. ± gives the spread as reported.

| Structure (SMILES) | cell line | test | setting | scale | measurement | value |
| --- | --- | --- | --- | --- | --- | --- |
| C=CCc1cc(OC)c(OC)c(OC)c1OC | HCT-116 | cell growth or viability, MTT | 72 h |  | GI50 | > 250000 nM |
| CC[C@H](C)[C@H](NC(=O)[C@H](Cc1ccccc1)NC(=O)[C@H](CC(=O)O)NC(=O)[C@H](CCCCN)NC(=O)[C@H](C)NC(=O)[C@H](CCCCN)NC(=O)[C@H](CC(N)=O)NC(=O)[C@H](CC(C)C)NC(=O)[C@H](Cc1c[nH]c2ccccc12)NC(=O)[C@H](CCC(=O)O)NC(=O)[C@H](CCCCN)NC(=O)[C@@H](NC(=O)CN)[C@@H](C)O)C(=O)N[C@@H](CCCCN)C(=O)N[C@@H](CCC(=O)O)C(=O)N[C@@H](CCCCN)C(=O)NCC(=O)N[C@@H](CC(C)C)C(=O)NCC(=O)N[C@@H](CCSC)C(=O)N[C@@H](CC(C)C)C(=O)N[C@@H](CO)C(=O)N[C@@H](C)C(=O)N[C@@H](C)C(=O)N[C@@H](C)C(=O)N[C@@H](CC(N)=O)C(=O)N[C@@H](C)C(=O)N[C@@H](C)C(=O)N[C@@H](CC(C)C)C(=O)N[C@@H](CC(N)=O)C(=O)O | mouse DRG neurons |  | 10 µM, 90 s |  | intracellular calcium increase | inactive |
| COc1ccccc1/C=C/[N+](=O)[O-] | MOLM-13 | cell growth or viability | 72 h |  | CC50 | 560 nM |
| CC[C@H]1OC(=O)[C@H](C(C)C)NC(=O)[C@H](C)OC(=O)[C@@H](C(C)C)NC(=O)[C@@H](C(C)C)OC(=O)[C@H](C(C)C)NC(=O)[C@H](C)OC(=O)[C@@H](C(C)C)NC(=O)[C@@H](C(C)C)OC(=O)[C@H](C(C)C)NC(=O)[C@H](C)OC(=O)[C@@H](C(C)C)NC1=O | U-251 | PI staining flow cytometry | 0.8 µM, 12 h |  | S phase cells | 21.9% |
| CC(=O)Oc1ccccc1/C=C/C(=O)Nc1nc(=O)n([C@@H]2O[C@H](C)[C@@H](OC(C)=O)[C@H]2OC(C)=O)cc1F | ASPC1 | cell viability, MTT |  | reference: NHDF fibroblasts over ASPC1 | selectivity index | 1.42 |
| O=C1/C(=C/c2ccc3c(c2)OCCO3)SC(=S)N1[C@@H]1O[C@H](CO)[C@@H](O)[C@H](O)[C@H]1O | HepG2 | refers to: Casp-3 | IC50, 48 h | reference: untreated | mRNA fold change | 4.16 fold |
| CC(C)[C@H](NC(=O)c1ccc(CNc2nc3c(c(=O)[nH]2)CCC3)cc1)C(=O)NC1CNC1 | mouse osteoclast precursors |  | 10 µM, 5 to 7 d, with: M-CSF and RANKL | reference: control | osteoclast differentiation | 31% |
| N[C@@H](Cc1ccccc1)C(=O)N[C@@H](Cc1ccccc1)C(=O)N[C@@H](CCCCNC(=O)CCC(=O)O)C(=O)N[C@@H](CCCCNC(=O)CCCC[C@@H]1SC[C@@H]2NC(=O)N[C@@H]21)C(=O)O | 4T1 | CCK-8 | 20 µM, 4 h then 24 h, dark | reference: untreated | viability | > 80% |
| O=C(O)CCC(NP(=O)(O)OCCC[C@@H](NC(=O)CCC(NC(=O)CCCCCNC(=O)CCCCCNC(=O)c1ccc([18F])cc1)C(=O)O)C(=O)O)C(=O)O (stereo partly drawn) | CWR22Rv1 |  | 1 h |  | internalized fraction | 84.9% |
| COC(=O)[C@H](CC(C)C)NC(=O)[C@@H]1CCCN1C(=O)[C@@H](NC(=O)[C@H](CCC(=O)C=[N+]=[N-])NC(=O)OCc1ccccc1)C(C)C | YAC128 mouse medium spiny neurons | TUNEL | 50 µM, 24 h after NMDA, baseline subtracted, with: NMDA 500 µM for 10 min |  | apoptotic cells | 13.1 ± 3.4% |
| CN1C(=O)C2(Cc3ccc(CC45SSC(CO)(C(=O)N4C)N(C)C5=O)cc3)SSC1(CO)C(=O)N2C (racemic) | MCF7 | microarray, refers to: TGFB3 | 600 nM, unit not given, with: deferoxamine 300 µM | reference: deferoxamine alone | mRNA level change | -1.8 |
| CCCCN(CCCC)CC(O)COc1c2ccoc2c(OC)c2oc(CC)cc(=O)c12 (stereo not drawn) | SW-620 | MTT |  | reference: IC50 HaCaT over IC50 SW-620 | selectivity index | 3.81 |
| C[C@H]1C(OCCCCCCC[P+](c2ccccc2)(c2ccccc2)c2ccccc2)O[C@@H]2O[C@@]3(C)CCC4[C@H](C)CCC1[C@]42OO3 (stereo partly drawn) | T24 | MTT | 72 h | reference: HUVEC IC50 over T24 IC50 | selectivity index | 2.67 |
| CCn1nc(Cl)c2c1-c1cnc(N)c(c1)O[C@H](C)c1cc(F)ccc1-c1nn(C)cc1C2 | Ba/F3 |  |  | reference: TRKB phosphorylation over ALK viability | selectivity ratio | ≥ 22 fold |
| CC/C=C\C/C=C\C/C=C\C/C=C\C/C=C\C/C=C\CCC(=O)Nc1ccn(C2OC(CO)C(O)C2(F)F)c(=O)n1 (stereo not drawn) | U-251 | NCI60 screen |  |  | CC50 | 43900 nM |
| C[C@H]1C(OCCCCCCCC[P+](c2ccccc2)(c2ccccc2)c2ccccc2)O[C@@H]2O[C@@]3(C)CCC4[C@H](C)CCC1[C@]42OO3 (stereo partly drawn) | J82 and T24 | western blot, refers to: CDK4 | concentration not given, 48 h |  | protein level | decreased |
| COC1CC(=O)N(C)C=CCCCC(=O)N(C)C(C(C)C)C(=O)N(C)C(CC(C)C)C(=O)OC(C(C)C)CC(C)C1 (stereo not drawn) | HCT-116 | RNA sequencing, refers to: idiopathic pulmonary fibrosis signalling | 20 µM, 12 h | direction not given | pathway activation z-score | 3 |
| CCN(CC)CCOc1ccc(-c2nnn(Cc3ccc(OC)cc3)c2N)cc1 | primary human vestibular schwannoma |  | 5 µM, 7 days |  | S100B-positive cell count | decreased |
| CC(C)CC(O)(CC(C)C)c1cn(C(=O)N2CCCC2)nn1 | mouse T-cells | N-terminal labeled proteins, N-terminal enrichment proteomics, refers to: PAIP2 | 1 nM, 6 h | reference: DMSO | SILAC ratio | 2.57 ± 0.29 |
| CC12CCC3(CCC(=O)NCCNc4ccnc5cc(Cl)ccc45)C(C)(OOC3(C)O1)O2 | HL-60 | cell growth or viability, resazurin | 10 µM, 48 h |  | inhibition | 0% |
| CC(=O)N1CCCC[C@H]1C(=O)NC(C)(C)C(=O)N1CCCC[C@H]1C(=O)NC(C)(C)C(=O)NC(C)(C)C(=O)N[C@@H](CC(C)C)C(=O)NC[C@@H](C)C(=O)NCC(=O)NC(C)(C)C(=O)NC(C)(C)C(=O)N1CCCC[C@H]1C(=O)NC(C)(C)C(=O)NCC(=O)N[C@@H](CC(C)C)C(=O)NC(C)(C)C(=O)N[C@@H](CC(C)C)C[N+]1=C2CCCN2CCC1 | 39 cancer cell lines |  | 48 h, mean over panel |  | GI50 | 933 nM |

Repeated from above:
| Structure (SMILES) | cell line | test | setting | scale | measurement | value |
| --- | --- | --- | --- | --- | --- | --- |
| COC(=O)[C@H](CC(C)C)NC(=O)[C@@H]1CCCN1C(=O)[C@@H](NC(=O)[C@H](CCC(=O)C=[N+]=[N-])NC(=O)OCc1ccccc1)C(C)C | YAC128 mouse medium spiny neurons | TUNEL | 50 µM, 24 h after NMDA, baseline subtracted, with: NMDA 500 µM for 10 min |  | apoptotic cells | 13.1 ± 3.4% |
| CN1C(=O)C2(Cc3ccc(CC45SSC(CO)(C(=O)N4C)N(C)C5=O)cc3)SSC1(CO)C(=O)N2C (racemic) | MCF7 | microarray, refers to: TGFB3 | 600 nM, unit not given, with: deferoxamine 300 µM | reference: deferoxamine alone | mRNA level change | -1.8 |
| CCCCN(CCCC)CC(O)COc1c2ccoc2c(OC)c2oc(CC)cc(=O)c12 (stereo not drawn) | SW-620 | MTT |  | reference: IC50 HaCaT over IC50 SW-620 | selectivity index | 3.81 |
